Assay results from different studies.
Compare with care: the assays were run in different laboratories. Values joined by “and” are separate records of one study, mostly repeats; a detail may differ. Numbers after ± are the reported error.
UniProt P49760, sequence (whole entry, looked up): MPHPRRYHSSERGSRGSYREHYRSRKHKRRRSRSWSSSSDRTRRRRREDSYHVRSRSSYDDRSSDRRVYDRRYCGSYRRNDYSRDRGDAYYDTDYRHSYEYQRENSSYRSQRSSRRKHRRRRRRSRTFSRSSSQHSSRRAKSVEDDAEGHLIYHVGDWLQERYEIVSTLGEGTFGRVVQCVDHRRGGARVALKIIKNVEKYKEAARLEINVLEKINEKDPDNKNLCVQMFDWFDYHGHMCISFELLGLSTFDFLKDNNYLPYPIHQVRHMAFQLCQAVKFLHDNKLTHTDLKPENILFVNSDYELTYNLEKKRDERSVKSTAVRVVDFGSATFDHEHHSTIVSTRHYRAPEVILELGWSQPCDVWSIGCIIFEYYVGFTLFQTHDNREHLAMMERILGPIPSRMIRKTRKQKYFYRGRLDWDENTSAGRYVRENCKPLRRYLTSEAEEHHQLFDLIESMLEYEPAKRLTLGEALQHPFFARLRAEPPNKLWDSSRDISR
UniProt Q9UM73, sequence (whole entry, unmodified, looked up): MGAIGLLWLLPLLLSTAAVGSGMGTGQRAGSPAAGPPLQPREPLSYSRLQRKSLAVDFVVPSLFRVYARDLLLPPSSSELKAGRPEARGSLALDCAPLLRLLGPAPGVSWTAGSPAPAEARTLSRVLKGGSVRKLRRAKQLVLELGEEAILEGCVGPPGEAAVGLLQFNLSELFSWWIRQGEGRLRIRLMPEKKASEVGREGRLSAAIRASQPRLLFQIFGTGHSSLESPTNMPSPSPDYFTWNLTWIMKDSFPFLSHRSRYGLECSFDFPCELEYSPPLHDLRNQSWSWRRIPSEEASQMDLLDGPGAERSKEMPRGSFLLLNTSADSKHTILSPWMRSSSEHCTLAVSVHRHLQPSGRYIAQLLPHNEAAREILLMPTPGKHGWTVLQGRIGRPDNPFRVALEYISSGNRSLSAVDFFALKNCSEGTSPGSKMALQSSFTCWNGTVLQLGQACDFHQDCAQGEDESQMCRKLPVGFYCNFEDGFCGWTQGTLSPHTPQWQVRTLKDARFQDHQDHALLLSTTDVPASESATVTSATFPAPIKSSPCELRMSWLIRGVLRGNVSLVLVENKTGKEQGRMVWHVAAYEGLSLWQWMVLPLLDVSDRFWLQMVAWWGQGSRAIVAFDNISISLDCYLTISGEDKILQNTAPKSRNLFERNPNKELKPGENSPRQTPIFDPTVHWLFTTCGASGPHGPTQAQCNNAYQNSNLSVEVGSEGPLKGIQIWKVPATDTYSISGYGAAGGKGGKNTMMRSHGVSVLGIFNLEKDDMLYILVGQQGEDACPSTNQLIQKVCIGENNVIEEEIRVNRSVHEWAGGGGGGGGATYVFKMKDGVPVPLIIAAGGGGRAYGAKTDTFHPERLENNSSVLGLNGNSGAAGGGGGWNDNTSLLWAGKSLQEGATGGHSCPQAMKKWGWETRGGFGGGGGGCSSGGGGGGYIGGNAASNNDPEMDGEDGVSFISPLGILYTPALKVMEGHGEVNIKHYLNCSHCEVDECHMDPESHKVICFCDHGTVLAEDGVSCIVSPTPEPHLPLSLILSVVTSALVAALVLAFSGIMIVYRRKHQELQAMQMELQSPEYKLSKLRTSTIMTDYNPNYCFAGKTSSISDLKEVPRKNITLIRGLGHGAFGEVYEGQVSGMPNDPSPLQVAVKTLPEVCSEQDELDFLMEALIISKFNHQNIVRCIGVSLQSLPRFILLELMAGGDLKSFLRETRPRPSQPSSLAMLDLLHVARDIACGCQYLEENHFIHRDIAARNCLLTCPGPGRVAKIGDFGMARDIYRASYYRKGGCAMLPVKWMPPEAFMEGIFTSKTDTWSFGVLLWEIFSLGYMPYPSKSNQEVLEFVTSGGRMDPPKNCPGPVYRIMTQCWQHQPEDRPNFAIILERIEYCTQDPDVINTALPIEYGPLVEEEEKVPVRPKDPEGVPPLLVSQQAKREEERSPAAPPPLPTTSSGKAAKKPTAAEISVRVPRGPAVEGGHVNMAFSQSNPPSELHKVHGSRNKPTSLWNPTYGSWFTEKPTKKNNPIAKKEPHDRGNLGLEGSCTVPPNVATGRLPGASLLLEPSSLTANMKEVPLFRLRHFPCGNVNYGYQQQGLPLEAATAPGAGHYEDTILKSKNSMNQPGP

For COC1C=COC2(C)Oc3c(C)c(O)c4c(c3C2=O)C2=NC3(CCN(CC(C)C)CC3)NC2=C(NC(=O)C(C)=CC=CC(C)C(O)C(C)C(O)C(C)C(OC(=O)Nc2cccnn2)C1C)C4=O (centres unmarked), the AUC was 84200 ng·h/mL (CD-1 mouse, plasma; oral, 12.5 mg/kg, efficacy dose).
Cc1ncsc1-c1ccc(C(C)NC(=O)C2CC(O)CN2C(=O)C(NC(=O)CCCCCCCCCCN2CCCC(Nc3ncc(Cl)c(Nc4ccccc4S(=O)(=O)C(C)C)n3)C2)C(C)(C)C)cc1 (centres unmarked): “log2 fold change” -1 (22Rv1; RNA-seq, refers to: RBAK mRNA; concentration not given; baseline: DMSO).
For CC1(C)CCC(CN2CCN(c3ccc(C(=O)NS(=O)(=O)c4ccc(NCC5COCCO5)c([N+](=O)[O-])c4)c(N4CCCOc5nc6[nH]ccc6cc54)c3)CC2)=C(c2ccc(Cl)cc2)C1 (centres unmarked), the AUC(0-t) was 130000 ng·h/mL (male beagle dog, plasma; oral, 25 mg/kg, single dose).
CC(C)C[C@H](NC(=O)[C@H](Cc1ccc(O)cc1)NC(=O)[C@@H](CCCNC(=N)N)NC(=O)[C@@H](CO)NC(=O)[C@H](Cc1ccccc1)NC(=O)[C@H](CC1CCCCC1)NC(=O)[C@H](CC(=O)O)NC(=O)CN1CCN(CC(=O)O)CCN(CC(=O)O)CCN(CC(=O)O)CC1)C(=O)N[C@@H](Cc1c[nH]c2ccccc12)C(=O)N[C@@H](CO)C(=O)O [copper-64 labelled] gave an activity concentration of 980 Bq/mL and 588 Bq/mL and 706 Bq/mL and 1370 Bq/mL and 1480 Bq/mL and 1450 Bq/mL (human, lung; concentration not given, 1 h).
CNC(=O)C1CCCN(C(=O)C2CC3CCC2N3C(=O)[C@@H]2C[C@@H](O)CN2C(=O)NCc2cccc(Cl)c2F)C1 (mixture of isomers) has a remaining activity of 98% and 96.2% and 101% (Cytochrome P450 2C9 (CYP2C9, Homo sapiens, UniProt P11712); preincubation without NADPH; human; 5.56 µM; baseline: negative control).
COC1CN([C@H]2CC[C@H]([C@@]3(C)Oc4c(Cl)cc(C(=O)NCc5c(SC)cc(C)[nH]c5=O)c(C)c4O3)CC2)C1 — result for “log2 fold change”: 1.47 (RNA-seq, refers to: MTSS2 mouse homolog; mouse, HT-1376 xenograft, whole blood; dose not given; baseline: vehicle).
The hepatic clearance of O=C(NCCOc1ccc(F)cc1)c1ccc([C@H]2[C@@H](F)[C@@H](F)C[C@@H](F)[C@H]2F)cc1 is reported as 3.9 mL/min/kg (liver microsome stability; human liver microsomes; 1 µM, without NADPH).
For Cc1nn(-c2nc3c(F)cc(F)cc3s2)c(O)c1C(c1ccc(C(F)(F)F)cc1)c1c(C)nn(-c2nc3c(F)cc(F)cc3s2)c1O, “AUC back-extrapolated observed” read 0.914% and 1.21% and 1.09% (ICR mouse, plasma; intravenous, 5 mg/kg).
With CCCC[C@H](NC(=O)COCCOCCNC(=O)CN1CCN(CC(=O)O)CCN(CC(=O)O)CC1)C(=O)N[C@H]1CC(=O)NCCCC[C@@H](C(N)=O)NC(=O)[C@H](Cc2c[nH]c3ccccc23)NC(=O)[C@H](CCCNC(=N)N)NC(=O)[C@@H](Cc2ccccc2)NC(=O)[C@H](Cc2c[nH]cn2)NC1=O [technetium-99m labelled] the tissue uptake was 0.02 ± 0.01 %ID/g (C57 mouse, heart; intravenous, 0.037 MBq, 4 h).
The tumour-to-tissue ratio of CCCC[C@H](NC(=O)CNC(=O)CNC(=O)[C@H](CCCCNC(=O)[C@H](CC(=O)O)NC(=O)C(C)c1ccc(CC(C)C)cc1)NC(=O)CN1CCN(CC(=O)O)CCN(CC(=O)O)CCN(CC(=O)O)CC1)C(=O)N[C@H]1CC(=O)NCCCC[C@@H](C(N)=O)NC(=O)[C@H](Cc2c[nH]c3ccccc23)NC(=O)[C@H](CCCNC(=N)N)NC(=O)[C@@H](Cc2ccccc2)NC(=O)[C@H](Cc2c[nH]cn2)NC1=O (some centres unmarked) [lutetium-177 labelled] is reported as 43.4 (C57 mice, tumour; intravenous, 0.037 MBq, 4 h; baseline: blood).
C=C1CC[C@H](OCCCNC(=O)CCOCCOCCOCCOCCOCCOCCOCCOCCOCCOCCOCCOCCOCCOCCOCCOCCOCCOCCOCCOCCOCCOCCOCCOCCOCCOCCOCCOCCOCCOCCOCCOCCOCCOCCOCCOCCNC(=O)CCN2C(=O)CC(SC[C@H](NC(=O)[C@H](Cc3ccccc3)NC(=O)[C@H](CC(N)=O)NC(=O)[C@H](Cc3c[nH]cn3)NC(=O)[C@@H](NC(=O)[C@H](CC(=O)O)NC(=O)[C@H](CCC(N)=O)NC(=O)[C@H](CC(C)C)NC(=O)[C@H](CCCCN)NC(=O)[C@H](CCCCN)NC(=O)[C@H](CCCNC(=N)N)NC(=O)[C@H](CC(C)C)NC(=O)[C@H](Cc3c[nH]c4ccccc34)NC(=O)[C@H](CCC(=O)O)NC(=O)[C@@H](NC(=O)[C@H](CCCNC(=N)N)NC(=O)[C@H](CCC(=O)O)NC(=O)[C@H](CCSC)NC(=O)[C@H](CO)NC(=O)[C@H](CC(N)=O)NC(=O)[C@H](CC(C)C)NC(=O)[C@H](Cc3c[nH]cn3)NC(=O)[C@H](CCCCN)NC(=O)CNC(=O)[C@H](CC(C)C)NC(=O)[C@H](CC(N)=O)NC(=O)[C@H](Cc3c[nH]cn3)NC(=O)[C@H](CCSC)NC(=O)[C@H](CC(C)C)NC(=O)[C@H](CCC(N)=O)NC(=O)[C@@H](NC(=O)[C@H](CCC(=O)O)NC(=O)[C@H](CO)NC(=O)[C@@H](NC(=O)[C@@H](N)CO)C(C)C)[C@@H](C)CC)C(C)C)C(C)C)C(=O)O)C2=O)C/C1=C/C=C1\CCC[C@]2(C)[C@@H]([C@H](C)CCCC(C)(C)O)CC[C@@H]12 (some centres unmarked) gave a half-life of 15.4 h (male Sprague-Dawley rat, plasma; subcutaneous, 30 µg/kg, single dose).
CN(C)c1cccc(-c2ccc([C@H]3[C@@H](F)[C@@H](F)C[C@@H](F)[C@H]3F)cc2)c1 gave a hepatic clearance of 44 mL/min/kg (liver microsome stability; rat liver microsomes; 1 µM).
For C=C(NC(=O)c1csc(-c2nc3c(cc2O)-c2nc(cs2)C(=O)NC(C(C)O)C(=O)NC(=C(C)OC)c2nc(cs2)C(=O)NC2c4nc(cs4)C(=O)NC(COC(=O)c4c5c6c(cccc6n4O)COC(=O)C(OC4CC(C)(O)C(N(C)C)C(C)O4)C2OC5)c2nc-3cs2)n1)C(N)=O (centres unmarked), the MRT(0-t) was 8.32 h (ICR mice, Streptococcus pneumoniae ATCC 49169 infected, immunocompromised, blood; intravenous, 16 mg/kg/day three times daily).
The intact complex of CC(=O)N([O-])CCCCCNC(=O)CCC(=O)N([O-])CCCCCNC(=O)CCC(=O)N([O-])CCCCCN.[89Zr+4] is reported as 98.6 ± 0.6% (radio-TLC; aqueous buffer; 1 d, pH 7.2, 37 °C, 89Zr-labelled complex, added: CuCl2 10-fold excess).
The tissue uptake of COc1cccc(OC)c1-c1cc(C(=O)NC2(C(=O)O)C3CC4CC(C3)CC2C4)nn1-c1ccc(C(=O)N(C)CCCN(C)C(=O)[C@H](CCCCNC(=O)[C@H](CC(C)C)NC(=O)C2OC2C(=O)O)NC(=O)CN2CCN(CC(=O)[O-])CCN(CC(=O)[O-])CCN(CC(=O)[O-])CC2)cc1C(C)C.[177Lu+3] (mixture of isomers) is reported as 0.43 %ID/g (mouse, HT-29 xenograft, spleen; 168 h post injection).
CN1CCCNC(=O)c2cccc(c2)C(=O)NCCCN(C)CCCNc2cccc3c2C(=O)c2cccc(c2C3=O)NCCC1: “log2 fold change” -0.86 (SAS; RNA-Seq, refers to: PRPSAP1 mRNA; 1 µM, 6 h; baseline: untreated cells).
For CCCC[C@H](NC(=O)CCCCCCCNC(=O)CN1CCN(CC(=O)O)CCN(CC(=O)O)CC1)C(=O)N[C@H]1CC(=O)NCCCC[C@@H](C(N)=O)NC(=O)[C@H](Cc2c[nH]c3ccccc23)NC(=O)[C@H](CCCNC(=N)N)NC(=O)[C@@H](Cc2ccccc2)NC(=O)[C@H](Cc2c[nH]cn2)NC1=O [technetium-99m labelled], the tissue uptake was 2.26 ± 1 %ID/g (C57 mouse, lung; intravenous, 0.037 MBq, 0.5 h).
The compound remaining of COC(=O)[C@@]1(C(C)C)C=C(C(=O)Nc2cccc(C(=O)Nc3ccc(Nc4nccc(-c5cccnc5)n4)c(C)c3)c2)C(=O)CC1 is reported as 97.6% and 101% (rat, plasma; 1 µM, 5 min).
For CC(C)C[C@H](NC(=O)[C@@H](CCCCNC(=O)[C@@H](Cc1ccccc1)NC(=O)CCCCCNC(=O)CN1CCN(CC(=O)O)CCN(CC(=O)O)CCN(CC(=O)O)CC1)NC(=O)[C@H](Cc1ccc(O)cc1)NC(=O)[C@H](CO)NC(=O)[C@H](Cc1c[nH]c2ccccc12)NC(=O)[C@H](Cc1c[nH]cn1)NC(=O)[C@@H]1CCC(=O)N1)C(=O)N[C@@H](CCCNC(=N)N)C(=O)N1CCC[C@H]1C(=O)NCC(N)=O [indium-111 labelled], the tissue uptake was 2.22 ± 0.77 %ID/g (female athymic nude mice, lung; intravenous, 0.037 MBq, 0.5 h).
O=C(Nc1cnccc1-c1ccc([18F])cc1)c1ccnc(NC(=O)C2CC2)c1 has a mean SUV of 0.28 (ex vivo gamma counting; GSK-3β transgenic mice, early-stage, left kidney; intravenous, 120 min).
With O=C(CN1CCOCC1)Nc1ccc([C@H]2[C@@H](F)[C@@H](F)C[C@@H](F)[C@H]2F)cc1 the hepatic clearance was 13 mL/min/kg (hepatocyte stability; cryopreserved rat hepatocytes; 1 µM).
COc1cccc(OC)c1-c1cc(C(=O)NC2(C(=O)O)C3CC4CC(C3)CC2C4)nn1-c1ccc(C(=O)N(C)CCCN(C)CCCN(C)C(=O)[C@H](CCCCNC(=O)[C@H](CC(C)C)NC(=O)C2OC2C(=O)O)NC(=O)CN2CCN(CC(=O)[O-])CCN(CC(=O)[O-])CCN(CC(=O)[O-])CC2)cc1C(C)C.[177Lu+3] (mixture of isomers) has a tumour-to-kidney ratio of 1.09 (mouse, HT-29 xenograft; 24 h post injection, biodistribution; baseline: tumour over kidney uptake).
O=C(CN1CN(c2ccccc2)C2(CCN(C(=O)c3ccc4[nH]ncc4c3)CC2)C1=O)N(CCO)CC(F)(F)F gave a CLint of 220 µL/min/mg protein (mouse liver microsomes).
For Nc1ncc(-c2ccc(C3CCCCC3)cc2)cn1, the hepatic clearance was 70 mL/min/kg (hepatocyte stability; cryopreserved mouse hepatocytes; 1 µM).
With Cc1nn(-c2cccc(N)c2)c(=O)c2cnc(Nc3ccc(N4CCNCC4)cc3)nc12 the IC50 was greater than 10000 nM (CLK2 (Homo sapiens, UniProt P49760); kinase activity, inhibitor, SelectScreen kinase profiling).
For O=C(c1ccc(-c2ccccc2)cc1)N1CCCCC1, the compound remaining was 84% (metabolic stability; human, liver microsomes; 2 µM, 40 min, pH 7.4).
For CCCCCCCOc1ccc(CC[C@](N)(CO)COP(=O)(O)O)cc1C(F)(F)F, the AUCτ was 30 ng·h/mL (healthy men, plasma; oral, 0.125 mg once daily, day 21, fed state).
CCC1(CC)CC(=O)N(C2c3cc(C(=O)NC4c5ccccc5CC4O)ccc3OC2(C)COC)C(=N)N1 (centres unmarked) has an unbound fraction of 0.232 (rat plasma).
The hepatic clearance of CN(C)C(=O)CNC(=O)c1ccc(C2CCCCC2)cc1 is reported as 24 mL/min/kg (liver microsome stability; dog liver microsomes; 1 µM).
C=CC(=O)Nc1cc(Nc2nccc(-c3c[nH]c4ccccc34)n2)c(OC)cc1N(C)CCN(C)C gave a recovery of 101% (storage stability; human dried blood spot; 2 h, on ice, LQC level).
The hepatic clearance of Cc1ccc(-c2ccc([C@H]3[C@@H](F)[C@@H](F)C[C@@H](F)[C@H]3F)cc2)cn1 is reported as 32 mL/min/kg (liver microsome stability; rat liver microsomes; 1 µM).
The IC50 of CCn1nc(Cl)c2c1-c1cnc(N)c(c1)O[C@H](C)c1cc(F)ccc1-c1nn(C)cc1C2 is reported as 2.5 nM (ALK (Homo sapiens, UniProt Q9UM73, L1152R); enzyme activity, inhibitor; added: ATP 1 mM).
For CC(C)CC(=O)Nc1ccc([C@H]2[C@@H](F)[C@@H](F)C[C@@H](F)[C@H]2F)cc1, the hepatic clearance was 10 mL/min/kg (hepatocyte stability; cryopreserved human hepatocytes; 1 µM).
CCN(CC)c1ccc2c(c1)O[B-]1(c3ccccc3OC)OC(=O)C(c3ccccc3)=N[N+]1=C2 (centres unmarked) — result for “fluorescence emission maximum”: 508 nm (toluene).
The hepatic clearance of NS(=O)(=O)c1cccc(-c2ccc([C@H]3[C@@H](F)[C@@H](F)C[C@@H](F)[C@H]3F)cc2)c1 is reported as 3.9 mL/min/kg (liver microsome stability; human liver microsomes; 1 µM, without NADPH).
O=C(Nc1cc(-c2ccnc3[nH]ccc23)c(Cl)cn1)[C@H]1CCC[C@@H](NC(=O)C(F)(F)F)C1 gave a hepatic clearance of 31.2 mL/min/kg (rat liver microsomes).
With Nc1ncc(-c2cc(-c3cnn(CC(F)(F)F)c3)ncc2F)nc1C(=O)NC1CNCC(F)C1 (centres unmarked) the remaining binding was 53% (MST1; KINOMEscan; 1 µM; baseline: DMSO control).
CCN(CC)c1ccc2c(c1)O[B-]1(c3ccccc3)OC(=O)C(c3ccccc3)=N[N+]1=C2C(C)C (centres unmarked): “fluorescence quantum yield” 0.65 (toluene).
